Published values gathered from unrelated publications.
Every numbered part comes from another study and shows a few of its results, in no order. Changes are numbered by the printed parent chain.
Chain of UniProt P10721 (whole entry, unmodified, looked up): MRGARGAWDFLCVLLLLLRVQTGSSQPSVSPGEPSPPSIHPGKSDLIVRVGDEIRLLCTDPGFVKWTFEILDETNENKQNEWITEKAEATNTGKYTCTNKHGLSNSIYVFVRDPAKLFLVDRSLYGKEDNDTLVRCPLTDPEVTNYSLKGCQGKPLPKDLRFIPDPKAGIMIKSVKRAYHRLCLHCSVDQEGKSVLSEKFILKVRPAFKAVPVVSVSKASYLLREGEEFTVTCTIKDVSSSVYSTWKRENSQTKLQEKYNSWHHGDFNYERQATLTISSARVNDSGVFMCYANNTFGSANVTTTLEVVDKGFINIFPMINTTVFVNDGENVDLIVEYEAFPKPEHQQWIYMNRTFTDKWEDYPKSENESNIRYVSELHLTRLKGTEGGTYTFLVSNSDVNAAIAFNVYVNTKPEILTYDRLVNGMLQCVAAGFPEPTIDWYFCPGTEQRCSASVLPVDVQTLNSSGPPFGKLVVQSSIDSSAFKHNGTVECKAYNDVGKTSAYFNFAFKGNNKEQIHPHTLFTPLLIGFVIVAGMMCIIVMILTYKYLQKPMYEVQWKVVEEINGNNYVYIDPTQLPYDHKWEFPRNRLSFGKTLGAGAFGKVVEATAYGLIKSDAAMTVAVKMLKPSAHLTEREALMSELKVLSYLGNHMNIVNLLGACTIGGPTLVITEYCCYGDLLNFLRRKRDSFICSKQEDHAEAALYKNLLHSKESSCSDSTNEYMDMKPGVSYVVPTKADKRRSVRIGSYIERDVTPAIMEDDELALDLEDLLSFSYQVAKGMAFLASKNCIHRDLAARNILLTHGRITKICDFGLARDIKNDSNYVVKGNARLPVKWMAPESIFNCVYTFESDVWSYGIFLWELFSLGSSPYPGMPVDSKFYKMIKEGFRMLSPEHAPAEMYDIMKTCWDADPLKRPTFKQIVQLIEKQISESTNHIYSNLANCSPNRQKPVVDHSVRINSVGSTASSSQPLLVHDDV

Block 1 — method: RNA Bind-n-Seq; molecule type: RNA; matrix: in vitro; concentration: 90 pmol; setting: 4-mer, random 30-nt RNA, single round; together with: 3 µM DMDA-PatA, 2 mM ADP, 2 mM phosphate; reference: input library; direction: higher = stronger binding
Target: Eukaryotic initiation factor 4A-I (EIF4A1, Homo sapiens, UniProt P60842, residues 1-406, full length assumed)
Chain of UniProt P60842 (whole entry, looked up): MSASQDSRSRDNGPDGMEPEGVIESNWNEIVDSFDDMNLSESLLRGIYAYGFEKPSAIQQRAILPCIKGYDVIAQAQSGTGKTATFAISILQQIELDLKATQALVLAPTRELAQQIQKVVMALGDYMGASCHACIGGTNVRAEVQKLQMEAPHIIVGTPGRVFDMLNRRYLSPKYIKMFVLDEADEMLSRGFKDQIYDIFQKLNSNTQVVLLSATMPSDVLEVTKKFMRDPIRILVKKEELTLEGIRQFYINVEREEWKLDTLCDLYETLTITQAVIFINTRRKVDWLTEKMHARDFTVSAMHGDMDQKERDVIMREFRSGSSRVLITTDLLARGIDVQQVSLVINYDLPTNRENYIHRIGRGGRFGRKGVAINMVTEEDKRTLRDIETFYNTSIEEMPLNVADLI
Sequence | 4-mer enrichment
AGAC | 0.721 fold
ACAU | 0.734 fold
CCAA | 0.695 fold
CUUA | 0.654 fold
GAGA | 1.55 fold
GGAA | 1.08 fold

Block 2 — method: protein-binding microarray; molecule type: double-stranded DNA, one strand shown; matrix: in vitro; concentration: not given; direction: higher = stronger binding
Target: Myc proto-oncogene protein, bHLH-zipper, MAX partner unstated (MYC, Homo sapiens, UniProt P01106, residues 368-449)
Chain of UniProt P01106 (368-449, looked up): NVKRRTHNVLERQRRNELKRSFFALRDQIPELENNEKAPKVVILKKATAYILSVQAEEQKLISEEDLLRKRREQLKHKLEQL
Setting: k-mer, scored over probes, only values ≥0.25
Sequence | E-score
ACGTGACT | 0.351
AGCACGCA | 0.405
AGCGCACG | 0.384
ACACATGG | 0.469
CACGCCAG | 0.273
CACGCCCG | 0.322
ATGCTCAC | 0.301
ACGCGGGA | 0.299

Block 3 — method: DHFR PCA, deep sequencing; matrix: yeast; together with: (+)-ABA 710 µM; reference: wild-type fitted maximum; direction: higher = stronger binding
Target: ABI1, truncated, D143A, DHFR fusion (Arabidopsis thaliana)
Setting: methotrexate growth selection, single substitutions
Parent: PYL1, truncated, DHFR fusion (Arabidopsis thaliana); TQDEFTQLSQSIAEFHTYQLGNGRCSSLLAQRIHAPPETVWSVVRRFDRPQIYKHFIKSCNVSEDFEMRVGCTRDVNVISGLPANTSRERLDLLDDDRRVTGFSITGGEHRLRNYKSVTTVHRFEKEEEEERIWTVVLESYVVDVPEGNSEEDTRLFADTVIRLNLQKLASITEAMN
Change | relative binding score [%]
I79S | 103
S104N | 57.9
A158K | -0.257
Q10A | 108
V145R | 87
Y141P | -8.96
D144K | 78.9
R45V | 44.3

Other studies, line by line
Compound | target | assay | setting | endpoint | value
CCC(=O)N[C@H]1CC[C@@H](C(=O)N(C)c2ccc(-c3nc4ccccc4o3)cc2)C1 | Mast/stem cell growth factor receptor Kit (KIT, Homo sapiens, UniProt P10721, D816H) | cell-free assay, competition with immobilised ligand | 1 µM | remaining binding | 85%

Excerpt of the above (block 3):
Change | relative binding score [%]
I79S | 103
D144K | 78.9
V145R | 87
